Experimental data of several laboratories.
A part holds a random share of what one study measured. Several values in a cell are separate wells, animals, samples, runs or records.
Sequence of UniProt P30291 (whole entry, looked up): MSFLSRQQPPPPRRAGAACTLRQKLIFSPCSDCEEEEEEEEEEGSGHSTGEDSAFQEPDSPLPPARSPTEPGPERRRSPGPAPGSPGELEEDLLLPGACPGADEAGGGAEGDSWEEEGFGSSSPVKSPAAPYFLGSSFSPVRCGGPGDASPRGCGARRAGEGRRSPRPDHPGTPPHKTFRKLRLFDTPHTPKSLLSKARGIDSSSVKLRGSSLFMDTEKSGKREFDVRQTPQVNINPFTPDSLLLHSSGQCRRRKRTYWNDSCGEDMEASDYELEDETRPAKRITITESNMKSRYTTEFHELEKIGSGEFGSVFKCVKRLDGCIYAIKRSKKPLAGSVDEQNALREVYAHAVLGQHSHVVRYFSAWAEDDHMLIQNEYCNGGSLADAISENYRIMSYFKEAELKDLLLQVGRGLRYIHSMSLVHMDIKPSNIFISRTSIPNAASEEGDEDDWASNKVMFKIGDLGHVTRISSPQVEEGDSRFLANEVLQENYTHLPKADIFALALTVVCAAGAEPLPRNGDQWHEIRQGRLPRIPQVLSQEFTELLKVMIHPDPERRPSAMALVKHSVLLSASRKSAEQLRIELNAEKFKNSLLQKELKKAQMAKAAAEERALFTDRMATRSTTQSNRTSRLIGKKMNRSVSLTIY
Sequence of UniProt Q8N752 (whole entry, looked up): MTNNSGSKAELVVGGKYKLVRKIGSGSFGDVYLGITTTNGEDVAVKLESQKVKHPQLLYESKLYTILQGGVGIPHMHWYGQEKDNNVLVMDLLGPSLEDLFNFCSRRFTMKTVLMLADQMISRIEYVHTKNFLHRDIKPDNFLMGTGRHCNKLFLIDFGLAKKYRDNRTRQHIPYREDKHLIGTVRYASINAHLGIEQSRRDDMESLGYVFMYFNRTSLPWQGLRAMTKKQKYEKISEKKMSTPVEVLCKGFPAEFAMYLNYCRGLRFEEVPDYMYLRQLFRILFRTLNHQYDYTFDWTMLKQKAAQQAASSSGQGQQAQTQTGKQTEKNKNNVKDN
Sequence of UniProt P49841 (whole entry, looked up): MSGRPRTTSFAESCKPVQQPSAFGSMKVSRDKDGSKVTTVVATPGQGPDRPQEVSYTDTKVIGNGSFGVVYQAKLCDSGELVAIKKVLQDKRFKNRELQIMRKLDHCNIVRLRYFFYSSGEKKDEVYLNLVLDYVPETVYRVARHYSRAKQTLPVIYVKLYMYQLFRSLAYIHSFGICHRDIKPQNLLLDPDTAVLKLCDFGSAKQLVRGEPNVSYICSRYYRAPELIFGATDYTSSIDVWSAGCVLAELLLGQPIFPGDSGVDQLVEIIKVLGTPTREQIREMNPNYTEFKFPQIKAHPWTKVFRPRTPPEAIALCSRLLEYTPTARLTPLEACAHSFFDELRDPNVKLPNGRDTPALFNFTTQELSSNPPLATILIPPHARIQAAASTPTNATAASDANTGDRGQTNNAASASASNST

Block 1
SMILES: CO[C@H]1CC[C@H](CNc2ccc(S(=O)(=O)NC(=O)c3ccc(N4CCN(CC5=C(c6ccc(Cl)cc6)CC(C)(C)CC5)CC4)cc3Oc3cnc4[nH]ccc4c3)cc2[N+](=O)[O-])CC1
Observed: cell-free assay
Method: competition with immobilised ligand
Concentration: 1 µM
Endpoint: remaining binding
Receptor-type tyrosine-protein kinase FLT3, autoinhibited (FLT3, Homo sapiens, UniProt P36888): 100%
EGFR (Homo sapiens, UniProt P00533, del747-750/T751S): 65%
CSNK1A1L (Homo sapiens, UniProt Q8N752): 85%
WEE1 (Homo sapiens, UniProt P30291): 100%
GSK3B (Homo sapiens, UniProt P49841): 100%
MYLK2 (Homo sapiens, UniProt Q9H1R3): 66%

Block 2
Target: Mitogen-activated protein kinase kinase kinase 14 (MAP3K14, Homo sapiens, UniProt Q99558)
Sequence of UniProt Q99558 (whole entry, looked up): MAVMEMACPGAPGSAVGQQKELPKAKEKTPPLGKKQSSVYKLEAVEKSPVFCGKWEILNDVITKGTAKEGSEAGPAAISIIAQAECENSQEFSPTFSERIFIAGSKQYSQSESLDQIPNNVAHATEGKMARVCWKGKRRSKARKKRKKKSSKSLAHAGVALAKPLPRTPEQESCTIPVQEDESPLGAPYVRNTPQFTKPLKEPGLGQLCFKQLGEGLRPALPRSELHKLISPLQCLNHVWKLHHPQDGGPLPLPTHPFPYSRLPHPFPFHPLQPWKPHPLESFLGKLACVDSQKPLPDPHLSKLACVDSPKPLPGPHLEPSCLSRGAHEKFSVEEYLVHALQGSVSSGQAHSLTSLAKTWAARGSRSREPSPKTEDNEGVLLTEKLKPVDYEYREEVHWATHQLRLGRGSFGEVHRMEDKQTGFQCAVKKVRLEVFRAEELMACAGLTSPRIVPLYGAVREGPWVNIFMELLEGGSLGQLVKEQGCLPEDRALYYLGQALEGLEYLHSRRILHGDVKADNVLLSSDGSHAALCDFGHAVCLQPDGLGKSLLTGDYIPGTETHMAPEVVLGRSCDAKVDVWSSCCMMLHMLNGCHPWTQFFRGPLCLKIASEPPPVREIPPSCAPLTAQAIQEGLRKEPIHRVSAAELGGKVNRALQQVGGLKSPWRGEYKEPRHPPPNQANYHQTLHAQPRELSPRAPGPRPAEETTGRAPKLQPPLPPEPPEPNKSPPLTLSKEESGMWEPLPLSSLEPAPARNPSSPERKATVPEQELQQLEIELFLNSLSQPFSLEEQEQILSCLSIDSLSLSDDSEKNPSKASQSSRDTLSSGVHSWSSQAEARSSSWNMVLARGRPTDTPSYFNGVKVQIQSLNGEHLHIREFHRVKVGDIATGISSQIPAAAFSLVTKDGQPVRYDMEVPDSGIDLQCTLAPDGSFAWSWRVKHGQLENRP
Observed: enzyme activity
Action: inhibitor
Concentration: 0.5 µM
Baseline: control
Endpoint: remaining activity
CNC(=O)c1cc(Oc2ccc(NC(=O)Nc3ccc(Cl)c(C(F)(F)F)c3)cc2)ccn1: 96.4%
CO[C@H]1C[C@@H]2CC[C@@H](C)[C@@](O)(O2)C(=O)C(=O)N2CCCC[C@H]2C(=O)O[C@H]([C@H](C)C[C@@H]2CC[C@@H](O)[C@H](OC)C2)CC(=O)[C@H](C)/C=C(\C)[C@@H](O)[C@@H](OC)C(=O)[C@H](C)C[C@H](C)/C=C/C=C/C=C/1C: 105%
COc1cc2nccc(Oc3ccc(NC(=S)NC(=O)c4ccccc4C)cc3)c2cc1OC: 106%
Cc1cccc(-c2[nH]c(C(C)(C)C)nc2-c2ccc3c(c2)OCO3)n1: 109%
COc1ccc(CNC(=O)Nc2ncc([N+](=O)[O-])s2)cc1: 84.2%
O=C(Nc1cccc(Nc2cc(Nc3cccc(C(F)(F)F)c3)ncn2)c1)C1CC1: 77.9%
COc1cc2ncnc(Nc3ccc(F)c(Cl)c3)c2cc1OCCCN1CCOCC1: 104%
Cn1sc(=O)n(Cc2ccccc2)c1=O: 81.6%
CC(C)[C@H](CO)Nc1nc(Nc2cc(N)cc(Cl)c2)c2ncn(C(C)C)c2n1: 100%
O=c1c2ccccc2[nH]c(=S)n1CCN1CCC(=C(c2ccc(F)cc2)c2ccc(F)cc2)CC1: 75.7%
OCC(O)CCON=C1C(c2c(O)[nH]c3ccccc23)=Nc2ccccc21 (stereo not drawn): 89%
COc1ccc(OC)c2c(=S)c3ccccc3[nH]c12: 96%
NCCNc1ncc(C(N)=O)c(Nc2cccc(C(F)(F)F)c2)n1: 110%
Nc1[nH]nc2nc3ccccc3nc12: 99.2%
Cc1nc(-c2ccccc2)c(-c2ccncc2)o1: 96.2%
COc1ccc(C(=O)Nc2sc3c(c2C(N)=O)CCCC3)cc1OC: 88%

Block 3
Cell line: mouse MPNST tumor cells
Method: high-content nuclear imaging
Measured: cell number
Concentration: 10 µM
Time: 12 h
Setting: mean of 2 replicates
Baseline: plate mean
Direction: higher = more cells
Endpoint: nuclei count
O=C(Nc1ccc(C(O)(C(F)(F)F)C(F)(F)F)cc1)c1ccccc1Cl: 0.94 z-score
NC[C@H]1O[C@H](O[C@H]2[C@H](O[C@@H]3O[C@H](CO)[C@@H](O)[C@H]3O)[C@@H](O)[C@H](N)C[C@@H]2N)[C@H](N)[C@@H](O)[C@@H]1O: 0.195 z-score
O=C(NCCN1CCOCC1)c1ccc(Cl)cc1: -0.326 z-score and 0.999 z-score
O=S(=O)(NC1CCNCC1)c1cc(S(=O)(=O)c2ccccc2)ccc1C(F)(F)F: 3.03 z-score
NS(=O)(=O)c1c(Cl)ccc(NC(=O)Nc2cccc(Cl)c2Cl)c1O: -0.199 z-score
CCc1cncnc1N1CCN(Cc2nc3ccc(C(F)(F)F)cc3[nH]2)CC1: 2.23 z-score
CC(C)Cc1sc(N)nc1-c1ccc(P(=O)(O)O)o1: 2.5 z-score

Block 4
Target: DNA polymerase theta, ATPase domain (POLQ, Homo sapiens, UniProt O75417)
Sequence of UniProt O75417 (whole entry, unmodified, looked up): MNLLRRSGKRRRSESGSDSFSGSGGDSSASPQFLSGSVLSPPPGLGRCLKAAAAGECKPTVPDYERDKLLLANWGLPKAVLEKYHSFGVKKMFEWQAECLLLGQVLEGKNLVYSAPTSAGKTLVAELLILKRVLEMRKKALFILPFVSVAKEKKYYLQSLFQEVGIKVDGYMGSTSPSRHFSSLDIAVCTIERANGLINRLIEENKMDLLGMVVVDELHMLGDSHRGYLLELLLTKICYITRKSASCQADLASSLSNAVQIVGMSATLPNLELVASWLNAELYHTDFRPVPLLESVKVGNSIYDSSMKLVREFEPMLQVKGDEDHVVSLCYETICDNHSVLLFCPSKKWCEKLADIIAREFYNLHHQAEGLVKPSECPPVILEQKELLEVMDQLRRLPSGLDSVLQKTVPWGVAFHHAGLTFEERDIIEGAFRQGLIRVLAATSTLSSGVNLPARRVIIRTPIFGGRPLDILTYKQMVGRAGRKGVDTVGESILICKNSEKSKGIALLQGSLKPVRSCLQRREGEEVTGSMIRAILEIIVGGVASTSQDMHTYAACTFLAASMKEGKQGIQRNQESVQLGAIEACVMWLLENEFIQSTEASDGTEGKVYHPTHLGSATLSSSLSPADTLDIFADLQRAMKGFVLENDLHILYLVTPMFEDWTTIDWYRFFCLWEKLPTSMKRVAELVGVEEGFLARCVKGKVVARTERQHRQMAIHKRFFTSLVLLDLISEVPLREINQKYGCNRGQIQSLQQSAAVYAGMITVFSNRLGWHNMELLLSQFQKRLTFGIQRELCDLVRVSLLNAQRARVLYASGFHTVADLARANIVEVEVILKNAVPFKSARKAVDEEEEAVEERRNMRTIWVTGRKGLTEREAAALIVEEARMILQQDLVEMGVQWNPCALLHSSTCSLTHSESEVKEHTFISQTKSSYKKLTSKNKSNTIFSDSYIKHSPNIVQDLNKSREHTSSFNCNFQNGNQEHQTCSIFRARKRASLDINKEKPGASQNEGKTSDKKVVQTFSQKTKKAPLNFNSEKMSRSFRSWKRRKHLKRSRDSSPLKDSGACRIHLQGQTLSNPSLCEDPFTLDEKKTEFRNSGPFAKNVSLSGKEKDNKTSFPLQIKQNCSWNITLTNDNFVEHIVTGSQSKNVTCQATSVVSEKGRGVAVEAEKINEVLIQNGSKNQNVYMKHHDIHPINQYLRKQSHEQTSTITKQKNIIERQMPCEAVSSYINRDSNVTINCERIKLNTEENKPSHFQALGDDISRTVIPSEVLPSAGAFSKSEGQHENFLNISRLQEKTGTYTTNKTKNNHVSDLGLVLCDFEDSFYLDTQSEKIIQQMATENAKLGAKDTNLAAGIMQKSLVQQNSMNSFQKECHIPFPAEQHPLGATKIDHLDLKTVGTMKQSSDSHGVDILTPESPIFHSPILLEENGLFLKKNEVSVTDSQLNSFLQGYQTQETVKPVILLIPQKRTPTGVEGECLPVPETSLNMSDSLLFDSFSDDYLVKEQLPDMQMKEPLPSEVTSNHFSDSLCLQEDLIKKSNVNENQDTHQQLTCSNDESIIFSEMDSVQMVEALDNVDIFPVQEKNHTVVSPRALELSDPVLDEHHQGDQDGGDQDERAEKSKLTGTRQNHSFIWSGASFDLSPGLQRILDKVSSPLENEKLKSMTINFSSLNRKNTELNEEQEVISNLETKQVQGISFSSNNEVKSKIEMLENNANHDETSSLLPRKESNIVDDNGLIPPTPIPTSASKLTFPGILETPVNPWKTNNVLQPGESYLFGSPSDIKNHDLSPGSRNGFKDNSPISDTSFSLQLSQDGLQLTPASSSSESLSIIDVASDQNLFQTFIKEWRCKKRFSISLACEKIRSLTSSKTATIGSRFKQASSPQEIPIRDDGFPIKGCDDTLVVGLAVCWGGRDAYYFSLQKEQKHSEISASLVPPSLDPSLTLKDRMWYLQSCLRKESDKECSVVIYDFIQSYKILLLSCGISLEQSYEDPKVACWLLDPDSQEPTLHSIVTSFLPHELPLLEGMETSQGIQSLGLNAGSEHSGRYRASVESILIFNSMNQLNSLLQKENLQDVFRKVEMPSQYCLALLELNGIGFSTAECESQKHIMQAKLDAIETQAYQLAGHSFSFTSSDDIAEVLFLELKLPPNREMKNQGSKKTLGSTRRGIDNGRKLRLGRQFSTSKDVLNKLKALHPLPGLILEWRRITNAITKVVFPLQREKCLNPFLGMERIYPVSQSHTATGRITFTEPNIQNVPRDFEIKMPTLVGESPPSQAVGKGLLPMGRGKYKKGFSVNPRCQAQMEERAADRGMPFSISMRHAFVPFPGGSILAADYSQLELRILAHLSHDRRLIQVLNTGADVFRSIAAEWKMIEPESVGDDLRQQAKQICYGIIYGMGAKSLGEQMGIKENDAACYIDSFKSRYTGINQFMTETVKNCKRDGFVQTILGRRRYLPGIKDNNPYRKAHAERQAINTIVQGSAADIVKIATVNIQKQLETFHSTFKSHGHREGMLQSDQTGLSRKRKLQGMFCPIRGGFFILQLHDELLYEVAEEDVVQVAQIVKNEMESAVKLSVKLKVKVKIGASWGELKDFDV
Observed: enzyme activity
Action: inhibitor
Concentration: 77 µM
Baseline: untreated
Endpoint: remaining activity
OCc1ccccc1O[C@@H]1O[C@H](CO)[C@@H](O)[C@H](O)[C@H]1O: 100%
CC(C(=O)O)c1ccc(-c2ccccc2)c(F)c1 (stereo not drawn): 93% and 96.5%
Nc1nc(O)c(C2=C3C(=Nc4ccccc43)C(=O)NCC2)[nH]1: 104%
COc1ccc2c(c1)C(=O)N(CCc1ccc(S(=O)(=O)NC(=O)NC3CCCCC3)cc1)C(=O)C2(C)C: 95.6%
N#CCNC(=O)c1ccc(-c2ccnc(Nc3ccc(N4CCOCC4)cc3)n2)cc1: 102% and 106% and 103%
CC(=O)Nc1ccc(O)cc1: 102%
CN(C)CCc1c[nH]c2ccc(CS(=O)(=O)N3CCCC3)cc12: 81.9%

Some of these lines once more (block 2):
COc1cc2ncnc(Nc3ccc(F)c(Cl)c3)c2cc1OCCCN1CCOCC1: 104%
Cn1sc(=O)n(Cc2ccccc2)c1=O: 81.6%
